{"data": "Measurements of several laboratories", "UCHL1": "Ubiquitin carboxyl-terminal hydrolase isozyme L1 (UCHL1, Homo sapiens, UniProt P09936)", "note": "“And” joins repeats or separate records; there may be more than shown. Numbers after ± are the reported error.", "sequence of UniProt P09936 (whole entry, looked up)": "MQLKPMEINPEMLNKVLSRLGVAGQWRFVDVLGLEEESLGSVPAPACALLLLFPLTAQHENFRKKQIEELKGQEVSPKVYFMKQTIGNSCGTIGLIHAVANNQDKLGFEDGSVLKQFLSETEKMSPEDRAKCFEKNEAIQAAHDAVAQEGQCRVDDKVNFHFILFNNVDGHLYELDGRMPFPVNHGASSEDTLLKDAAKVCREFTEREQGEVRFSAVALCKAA", "sequence of UniProt Q07794 (whole entry, looked up)": "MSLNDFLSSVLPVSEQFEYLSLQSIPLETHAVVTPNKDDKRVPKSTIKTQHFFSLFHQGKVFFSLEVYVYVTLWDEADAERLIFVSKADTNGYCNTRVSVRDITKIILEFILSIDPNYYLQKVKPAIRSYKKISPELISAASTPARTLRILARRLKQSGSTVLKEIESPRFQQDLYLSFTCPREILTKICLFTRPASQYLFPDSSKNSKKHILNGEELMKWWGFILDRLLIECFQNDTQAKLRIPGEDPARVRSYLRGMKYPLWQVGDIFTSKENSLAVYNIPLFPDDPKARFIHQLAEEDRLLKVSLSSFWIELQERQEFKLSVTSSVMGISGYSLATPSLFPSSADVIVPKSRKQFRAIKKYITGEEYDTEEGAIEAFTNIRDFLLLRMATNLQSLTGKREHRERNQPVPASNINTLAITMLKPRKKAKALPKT"}
{"SMILES": "Cn1cc(-c2ccc(-c3cncc(Cl)c3N3CCC4(CCNC4=O)CC3)cc2)cn1", "tested on": "COLO 205", "test": "microarray, refers to: OPTN", "conditions": "concentration not given, 6 h, gene set Optineurin", "how to read": "reference: untreated cells", "quantity": "fold change in expression", "result": 3.98}
{"SMILES": "C=CC(=O)N1CCC(C(=O)Nc2ccc(CC)cc2)CC1", "tested on": "UCHL1", "test": "covalent, intact protein LC-MS", "conditions": "12.5 µM", "quantity": "labelling", "result": "10.3%"}
{"SMILES": "Nc1nc2nn[nH]c2c(=O)[nH]1", "tested on": "Trypanosoma cruzi", "test": "reporter translation, Renilla luciferase mRNA translation", "test system": "cell-free extract", "conditions": "40 µM", "how to read": "reference: DMSO", "quantity": "inhibition", "result": "11.1%"}
{"SMILES": "CC(C)(C)c1ccc(S(=O)(=O)Nc2cccc(Cl)c2)cc1", "tested on": "Histone acetyltransferase RTT109, with Vps75 (Saccharomyces cerevisiae, UniProt Q07794)", "test": "enzyme activity, inhibitor, HTS, CPM-based, dose response", "quantity": "IC50", "result": "> 125 µM"}
{"SMILES": "CCn1cc(-c2cc(Cn3ccnc3)cc3c2CCN([C@H](c2cc(OC)ccn2)C2CC2)C3=O)c(C(F)(F)F)n1", "tested on": "SK-LU-1", "test": "cell growth, inhibitor", "conditions": "120 h", "quantity": "EC50", "result": "> 30 µM"}
{"SMILES": "N#CC(=Cc1ccc2[nH]c(=O)[nH]c2c1)C(=O)NC1CCCC1", "tested on": "UCHL1", "test": "covalent, intact protein LC-MS", "conditions": "12.5 µM", "quantity": "labelling", "result": "8.2%"}
{"SMILES": "CCCCN1CCN(c2ccc3nc(-c4ccc5nc(-c6cc(OC)ccc6OC)[nH]c5c4)[nH]c3c2)CC1", "tested on": "SNB-75", "test": "SRB", "conditions": "10 µM, 48 h", "quantity": "growth percent", "result": "85.7%"}
{"SMILES": "COc1c(C)c(OC(=O)c2ccccc2)c(C)c(O)c1C(=O)/C=C/c1ccccc1", "tested on": "FaDu", "test": "SRB", "how to read": "reference: normal over FaDu IC50", "quantity": "selectivity index", "result": "> 1.32"}
{"SMILES": "COc1cnc2cccc(N3CCc4c(cc(Cn5ccnc5C)cc4-c4cn(C)nc4C(F)(F)F)C3=O)c2c1", "tested on": "SNU1079", "test": "cell growth", "conditions": "120 h", "quantity": "EC50", "result": "0.282 µM"}
{"SMILES": "Nc1cccc2c1C(=O)N(C1CCC(=O)NC1=O)C2=O (stereo not shown)", "tested on": "bone marrow CD138+ myeloma cells", "test": "XTT", "conditions": "0.6 µM, mean of three patients", "quantity": "viability", "result": "114%"}
{"SMILES": "CCOC(=O)c1nn(-c2cccc(Cl)c2)/c(=N/N=C(\\C)c2ccc(NC(=O)c3ccccc3)cc2)s1", "tested on": "MCF7", "test": "MTT", "conditions": "0.156 µM", "quantity": "cytotoxicity", "result": "40.8%"}
{"SMILES": "C=CC1=C(C)c2cc3[n-]c(cc4nc(cc5[n-]c(cc1n2)c(C)c5C=C)C(C)=C4CCC(=O)O)c(CCC(=O)O)c3C.[Zn+2]", "tested on": "SH-SY5Y", "test": "RNA-seq, refers to: MALL mRNA", "conditions": "5 µM, 5 h", "how to read": "reference: untreated cells", "quantity": "fold change", "result": 44.3}
{"SMILES": "COc1ccc(NC(=O)c2c(Nc3ccccc3)sc(C(=O)NN=Cc3ccc(OC)c(O)c3)c2NC(C)=O)cc1", "tested on": "HepG2", "test": "ELISA", "conditions": "IC50, 24 h", "quantity": "Bax level", "result": "215 ± 30.1 pg/mL"}
{"SMILES": "COC(=O)Nc1nc2ccc(C(=O)c3cccs3)cc2[nH]1", "tested on": "tsFT210 G2-synchronised", "test": "flow cytometry", "conditions": "100 nM, 4 h after release at 32 °C", "quantity": "G1 cells", "result": "2.7%"}
{"SMILES": "C[C@H]1Oc2cc(cnc2N)-c2c(nn(C)c2C#N)CN(C)C(=O)c2ccc(F)cc21", "tested on": "NCI-H2228 (EML4-ALK variant 3)", "test": "cell viability", "quantity": "Emax", "result": "33.2%"}
{"SMILES": "N#Cc1ccc(C[C@H](NC(=O)c2cc3cc(F)ccc3[nH]2)C(=O)N2CCc3ccccc32)cc1", "tested on": "human neutrophils", "test": "calcium mobilization, agonist", "quantity": "EC50", "result": "0.3 ± 0.2 µM"}
{"SMILES": "Cc1cnc2ccc3c(c2n1)N1CCC(O)N=C1N3C (stereo not shown)", "tested on": "BALB/c 3T3", "test": "colony forming efficiency", "conditions": "5 µM", "quantity": "colony number", "result": "24 colonies per plate and 25 colonies per plate and 27 colonies per plate"}
{"SMILES": "Cn1cc(-n2cnc3c(NCc4nc5cc(Cl)c(Cl)cc5[nH]4)nc(N4CCOCC4)nc32)cn1", "tested on": "MDA-MB-468", "test": "cell viability, CellCounting-Lite", "conditions": "8.23 nM, 37 °C", "how to read": "higher = more viable cells", "quantity": "luminescence signal", "result": "257000 a.u. and 313000 a.u. and 297000 a.u."}
{"SMILES": "Cc1cc(C)n(-c2nc(-c3ccc(Cl)cc3)c3c(NC(=O)c4ccccc4)nnc-3[nH]2)n1", "tested on": "MDA-MB-231/ATCC", "test": "NCI60 SRB", "conditions": "10 µM", "quantity": "growth percent", "result": "74.2%"}
{"SMILES": "O=C(C1=C[C@H](C2CCCCC2)C[C@H](OCc2ccc(CO)cc2)O1)N1CCN(Cc2ccc3c(c2)OCO3)CC1", "tested on": "Trypanosoma cruzi", "test": "reporter translation, Renilla luciferase mRNA translation", "test system": "cell-free extract", "conditions": "40 µM", "how to read": "reference: DMSO", "quantity": "inhibition", "result": "-1.5%"}
{"SMILES": "CCCCN1C[C@H](O)[C@@H](O)[C@@H](O)[C@H]1CO", "tested on": "sample D patient fibroblasts", "test": "Gb3 level lowering, LC-MS/MS, refers to: Gb3 d18:1/22:0", "conditions": "216 h", "quantity": "IC50", "result": "11.5 µM"}
{"SMILES": "CC(=O)c1nn(-c2ccc(Cl)cc2)/c(=N/N=C(\\C)c2ccc(NC(=O)c3ccc(Cl)cc3)cc2)s1", "tested on": "MCF7", "conditions": "10 µM", "quantity": "viability", "result": "22.5%"}
{"SMILES": "Cn1cc(Nc2nccc(-c3ccc4c(c3)CN(C3COC3)CC[C@H]4NC(=O)c3cn(C(C)(C)C)nn3)n2)cn1", "tested on": "mouse splenic B cells", "test": "refers to: PDGF signalling", "conditions": "30 mg/kg, IgD-activated in vivo", "how to read": "reference: vehicle, direction not given", "quantity": "pathway activation z-score", "result": 2.5}
{"SMILES": "Cc1ccc(NC(=O)[C@H]2CCCN(C(=O)c3c(C)cccc3F)[C@H]2c2ccc(NC3CCCC3)cc2)cc1C(F)(F)F", "tested on": "human peripheral blood neutrophils", "test": "NET formation", "conditions": "1 µM, added: MPO-ANCA immune complex, C5a", "quantity": "citrullinated histone H3 per neutrophil", "result": "11.3 and 9.61 and 7.15 and 9.98"}
{"SMILES": "O=C(/C=C/C=C/C=C/C1CCCCC1)NC1=C[C@@](O)(/C=C/C=C/C=C/C(=O)NC2=C(O)CCC2=O)[C@@H]2O[C@@H]2C1=O", "tested on": "COR-L23", "test": "cell growth, CellTiter-Glo", "conditions": "78 h", "quantity": "GI50", "result": "17.5 µM"}
{"note": "For quick reference, copied from above:"}
{"SMILES": "CCCCN1C[C@H](O)[C@@H](O)[C@@H](O)[C@H]1CO", "tested on": "sample D patient fibroblasts", "test": "Gb3 level lowering, LC-MS/MS, refers to: Gb3 d18:1/22:0", "conditions": "216 h", "quantity": "IC50", "result": "11.5 µM"}
{"SMILES": "Nc1nc2nn[nH]c2c(=O)[nH]1", "tested on": "Trypanosoma cruzi", "test": "reporter translation, Renilla luciferase mRNA translation", "test system": "cell-free extract", "conditions": "40 µM", "how to read": "reference: DMSO", "quantity": "inhibition", "result": "11.1%"}
{"SMILES": "Cc1ccc(NC(=O)[C@H]2CCCN(C(=O)c3c(C)cccc3F)[C@H]2c2ccc(NC3CCCC3)cc2)cc1C(F)(F)F", "tested on": "human peripheral blood neutrophils", "test": "NET formation", "conditions": "1 µM, added: MPO-ANCA immune complex, C5a", "quantity": "citrullinated histone H3 per neutrophil", "result": "11.3 and 9.61 and 7.15 and 9.98"}
